{"data": "Published values pooled from the literature", "cell line": "MDA-MB-231", "note": "Each line is one published result; not all experiments were run side by side. ± marks the error that the study gave."}
{"Structure (SMILES)": "CO[C@H]1[C@H](O[C@H]([C@H]2O[C@@H](n3ccc(=O)[nH]c3=O)[C@H](O)[C@@H]2O)[C@H](NCCCNC(=O)[C@@H](NC(=O)[C@@H](NC(=O)N[C@H](C(=O)O)C(C)C)[C@@H]2CCN=C(N)N2)[C@@H](OC(=O)CCCCCCCCCCCCN(O)C(=N)N)C(C)C)C(=O)O)O[C@H](CN)[C@H]1O", "system": "mitochondrial membrane", "setting": "0.25 µM", "endpoint": "cardiolipin level", "result": "decreased"}
{"Structure (SMILES)": "Cc1[nH]c2ccccc2c1C1=C(Cl)C(=O)C(Cl)=C(N2CCOCC2)C1=O", "test": "DCFH-DA", "setting": "1 µM, 24 h", "endpoint": "ROS level", "result": "increased"}
{"Structure (SMILES)": "Nc1ccccc1NC(=O)c1ccc(CNc2ccc(NC3=C(Cl)C(=O)c4cccnc4C3=O)cc2)cc1", "test": "DNA replication", "setting": "5 µM, 6 h", "endpoint": "EdU incorporation", "result": "decreased"}
{"Structure (SMILES)": "CC(C)[C@H](NC(=O)c1cc(Cl)ccc1OCCNC(=O)OC(C)(C)C)C(=O)Nc1ccc([N+](=O)[O-])cc1Cl", "test": "Western blot", "setting": "1, 5, 10 µM, 48 h", "endpoint": "Bcl-2 level", "result": "decreased"}
{"Structure (SMILES)": "O=C(CCCCCCCC(=O)Nc1ccc(NC2=C(Cl)C(=O)c3cccnc3C2=O)cc1)NO", "test": "MTT", "setting": "8 µM, 48 h", "endpoint": "growth inhibition", "result": "23%"}
{"Structure (SMILES)": "OCc1ccc(Nc2ccc3c(Nc4cccc(C(F)(F)F)c4)ncnc3c2)cc1", "setting": "IC50, 24 h", "endpoint": "G0/G1 phase cells", "result": "22.3%"}
{"Structure (SMILES)": "O=P(O)(O)C(O)(Cn1ccnc1)P(=O)(O)O", "test": "AlamarBlue", "setting": "3.8 µM, 48 h", "how to read": "relative to: control", "endpoint": "viability", "result": "99 ± 2%"}
{"Structure (SMILES)": "CCCNC(=O)[C@H]1O[C@@H]1C(=O)N[C@H](C(=O)N1CCC[C@H]1C(=O)OC)[C@@H](C)CC", "setting": "72 h", "how to read": "relative to: dark EC50 over light EC50", "endpoint": "phototoxicity index", "result": 0.6}
{"note": "Some of these lines once more:"}
{"Structure (SMILES)": "CCCNC(=O)[C@H]1O[C@@H]1C(=O)N[C@H](C(=O)N1CCC[C@H]1C(=O)OC)[C@@H](C)CC", "setting": "72 h", "how to read": "relative to: dark EC50 over light EC50", "endpoint": "phototoxicity index", "result": 0.6}
